Experimental data collected from several papers.
Numbered parts are unrelated; each lists some results of a single study. Positions count from the first letter of the parent shown.

Set 1
Target: Interferon regulatory factor 5, full length, phosphomimetic (IRF5, Homo sapiens, UniProt Q13568-2, residues 1-514, S451D/S453D/S456D/S462D)
Technique: protein-binding microarray
Form: double-stranded DNA, one strand shown
Sample: in vitro
Concentration: 940 nM top
Setting: 60-bp whole probe
With: salmon DNA 0.4 mg/ml
Relative to: random background probes
Direction: higher = stronger binding
All sequences stand within: GCCTAGCAC … GTCTTGATTCGCTTGACGCTGCTG
| Oligonucleotide | fitted relative affinity [z-score] |
| --- | --- |
| TTAGGACTGATTCTCCTTTAGTGCTAG | -0.169 |
| TGAAAATTCTAATTAGAATTGTGCTAG | -0.454 |
| TTAGGTCCCCTACTGCTTTAGTGCTAG | -0.0908 |
| TCACTTCTTTTTTTTCTACTGTGCTAG | 1.53 |
| TTAGATCTCCGACTGGATTAGTGCTAG | -0.257 |
| TTAGGTATCGGGTATCGGATAGTGCTA | 6.63 |
| GACGGTTTCGGTTCCGGGACGTGCTAG | 13.3 |
| GACGCTATCAGTTTCGAGACGTGCTAG | 3.72 |
| GCCATTATGAGTCTTGAAGAGTGCTAG | -0.398 |
| GCCGATATCGGGTTTCGAGACGTGCTA | 2.58 |
| TCAATTTTCGTTTTGTGACTGTGCTAG | 1.67 |
| ATTGATAGTTTCACAATGCCGTGCTAG | 4 |
| GACGGTACCGGGACTGGGGACGTGCTA | -0.0607 |
| TCACGGGCTTCTTTTTCTACTGTGCTA | 0.955 |
| TTAGATATCGGTTTTCGATTAGTGCTA | 1.75 |
| GACGATTTCAGACTGGAGATGTGCTAG | -0.384 |
| GACGATTTCAGTTTCCAGACGTGCTAG | 0.647 |
| TTAGGTTTCGGACTCGGTTAGTGCTAG | 7.44 |
| GACGATTTCAGTATCTAGACGTGCTAG | 1.01 |

Set 2
Target: CCND2, cyclin fold, Cln2 fusion (human)
Technique: yeast growth competition, sequencing
Sample: yeast
Setting: weak parent motif
Relative to: not given
Direction: higher = stronger binding
Starting sequence: CDC25A docking peptide (human); PPHRRRLLFACSP
| Substitution | normalised enrichment score |
| --- | --- |
| S12R | 0.265 |
| H3V | 0.534 |
| P1S | 0.0658 |
| L7F | 0.0666 |
| R4Q | 0.252 |
| R6I | 0.0347 |
| H3R | 0.238 |
| P13C | 0.436 |
| P1T | -0.014 |
| C11S | 0.0574 |
| A10Y | -0.383 |
| H3W | 0.109 |
| C11D | -0.234 |
| P1K | 0.619 |
| F9M | 0.274 |
| A10T | 0.196 |
| S12I | 0.129 |
| R5G | 0.229 |
| P1H | -0.00684 |
| L8S | -0.0445 |
| S12H | -0.125 |
| A10F | 0.149 |
| A10W | 0.0215 |
| R4A | 0.101 |
| P1C | -0.188 |

Set 3
Target: Protein C-ets-1 (ETS1, Homo sapiens, UniProt P14921, residues 1-441, full length assumed)
Technique: protein-binding microarray
Form: double-stranded DNA, one strand shown
Sample: in vitro
Concentration: not given
Setting: k-mer, scored over probes, only values ≥0.25
Direction: higher = stronger binding
Construct (chain): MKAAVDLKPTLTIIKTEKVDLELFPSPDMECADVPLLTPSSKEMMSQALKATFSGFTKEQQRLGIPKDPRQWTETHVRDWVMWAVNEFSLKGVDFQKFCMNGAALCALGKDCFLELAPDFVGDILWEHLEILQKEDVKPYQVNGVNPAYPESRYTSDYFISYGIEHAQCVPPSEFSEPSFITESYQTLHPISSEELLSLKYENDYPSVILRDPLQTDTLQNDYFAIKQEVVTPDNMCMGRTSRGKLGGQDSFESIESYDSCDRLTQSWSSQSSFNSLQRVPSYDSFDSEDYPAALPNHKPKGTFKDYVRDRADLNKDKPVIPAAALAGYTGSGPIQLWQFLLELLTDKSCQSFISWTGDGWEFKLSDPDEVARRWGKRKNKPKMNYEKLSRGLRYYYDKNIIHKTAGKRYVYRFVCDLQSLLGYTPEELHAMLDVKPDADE
| Oligonucleotide | E-score |
| --- | --- |
| CCGCTTCC | 0.443 |
| GAAACGGA | 0.351 |
| CCGGGATC | 0.292 |
| CCGTTTTA | 0.268 |
| AGGATGAA | 0.287 |
| AATTCCGC | 0.345 |
| AAGGATGC | 0.368 |
| ACTCCGGA | 0.402 |
| ACGTATCC | 0.254 |
| GGATAGGA | 0.256 |
| GTCCTGTA | 0.343 |
| CCGGTATC | 0.37 |
| AAAAGGAA | 0.36 |
| ACATCCGT | 0.467 |
| AGAGGATG | 0.412 |
| GGATTTTA | 0.258 |
| GAAGTACC | 0.266 |

Set 4
Target: RNA binding protein fox-1 homolog 2, RRM domain, GST-SBP tag (RBFOX2, Homo sapiens, UniProt O43251-10, residues 100-194)
Technique: RNA Bind-n-Seq
Form: RNA
Sample: in vitro
Concentration: 365 nM
Setting: natural RNA segment, single round, ends assumed
Relative to: no-protein control
Direction: higher = stronger binding
All sequences stand within: GGGAGUUCUACAGUCCGACGAUC … UGGAAUUCUCGGGUGCCAA
Target sequence (chain): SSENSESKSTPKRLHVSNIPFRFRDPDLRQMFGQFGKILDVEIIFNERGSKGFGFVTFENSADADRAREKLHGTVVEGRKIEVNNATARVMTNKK
| Oligonucleotide | RBNS enrichment (R) |
| --- | --- |
| UUCCAGAAGAGAGCUAUUUAAACUGGUGGACAUGGGAUUGGAGUCUGGUGUUAGAUUGUUUUGAAUUCUGUUGUCCACAAGAACUCUGUUCUCGUGUUCUUUUGUUUCCG | 0.414 |
| UGCUCUAUCAUAGAUGAACAAAUACUUUCUUGAUCAUUCUGUAAGACCAGGAGGUUGGUAAGAGUGACUAACCAGCCUAACUUUAAUACACAUGUAUAAAGAUGUUCACA | 0.303 |
| UUGUUCAUAUCGUGUCAGAGAUUUCCUCUUCUCUGGAGCUUAGGUGGCUCUUCACAAUCCAUAGGCUUGAAUCUGCAACCUAGUGUAAACUGCCUUGCUUUCCCCGGUUC | 0.573 |
| UUAUUGCUGUUUGAAUAAUAUGAUUAAAUAGAAGGUUUGUGCCAGUAGACAUUAUGUUACUAAAUCAGCACUUUAAAAUCUUUGGUUCUCUAAUUCAUAUGAAUUUGCUG | 0.301 |
| UUUAAAGAUUUUAUUUAAACUGUUAAGAAUCAAGCCGCGAACAAGCCCACUCCUUCAUGAACAAUUCCACUUUAUUGACUGAACUCUUCUCAUACCUUCACAUUUCUCAG | 0.492 |
| AUUGUUACAAAUUGUAGUGCCUGAAAACACUCUUAAGCUGAUUGUCUUAACAAAAUGAAAGUUCUCCAAAGACAAAACAGAACAAUUAUUAUAACAAAAUAAUUAUGGUU | 0.445 |
| CUGCCUUCCCCUUCUAAGGAAGAACUGAGUGGGUAAGGGACAGGUGUGUAAAAUCUCCAAAUGGAUGUUACAGCUUUCAGCUUGAACGUUUGUUUCCAGACCUGAUUAAA | 0.222 |
| GAGGUACUAGUGGACAGGACUUUCAUGGCUUGGGUCCAUGCUCCUCCCACACCCAAGAGGAGUGGUGGGUUUGAGUUUGGAGGUUUUACUCAAGUGACAGCUUCAGCAUU | 0.668 |

Some of these lines once more (set 1):
| Oligonucleotide | fitted relative affinity [z-score] |
| --- | --- |
| TTAGGTCCCCTACTGCTTTAGTGCTAG | -0.0908 |
| GACGGTACCGGGACTGGGGACGTGCTA | -0.0607 |
| TCAATTTTCGTTTTGTGACTGTGCTAG | 1.67 |
| TTAGGTATCGGGTATCGGATAGTGCTA | 6.63 |
| GACGCTATCAGTTTCGAGACGTGCTAG | 3.72 |
| GCCGATATCGGGTTTCGAGACGTGCTA | 2.58 |
| TCACTTCTTTTTTTTCTACTGTGCTAG | 1.53 |
